Assay results of several laboratories.
Lines come from different studies, so protocols differ. Values joined by “and” are separate records of one study, mostly repeats; a detail may differ. ± gives the spread as reported.
CASP8: Caspase-8 (CASP8, Homo sapiens, UniProt Q14790)
Sequence of UniProt Q14790 (whole entry, looked up): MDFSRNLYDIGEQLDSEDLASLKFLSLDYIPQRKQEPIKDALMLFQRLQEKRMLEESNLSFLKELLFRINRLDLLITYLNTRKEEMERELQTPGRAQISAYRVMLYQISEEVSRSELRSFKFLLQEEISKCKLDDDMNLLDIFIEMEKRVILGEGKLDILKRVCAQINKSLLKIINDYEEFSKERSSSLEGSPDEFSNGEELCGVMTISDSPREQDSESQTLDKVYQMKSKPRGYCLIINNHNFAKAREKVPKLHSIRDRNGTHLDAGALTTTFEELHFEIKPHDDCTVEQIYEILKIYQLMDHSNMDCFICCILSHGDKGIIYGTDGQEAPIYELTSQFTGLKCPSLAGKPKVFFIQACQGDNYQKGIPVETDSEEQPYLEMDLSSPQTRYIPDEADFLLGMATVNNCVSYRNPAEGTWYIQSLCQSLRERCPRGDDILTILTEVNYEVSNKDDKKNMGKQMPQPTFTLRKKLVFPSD
FADD: FAS-associated death domain protein (FADD, Homo sapiens, UniProt Q13158)
Sequence of UniProt Q13158 (whole entry, looked up): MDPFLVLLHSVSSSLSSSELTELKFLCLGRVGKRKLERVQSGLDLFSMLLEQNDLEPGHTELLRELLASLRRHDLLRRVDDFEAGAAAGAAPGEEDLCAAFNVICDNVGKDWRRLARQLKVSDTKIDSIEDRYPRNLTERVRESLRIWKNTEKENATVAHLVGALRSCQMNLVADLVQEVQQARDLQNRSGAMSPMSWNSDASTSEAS
CASP10: Caspase-10 (CASP10, Homo sapiens, UniProt Q92851)
Sequence of UniProt Q92851 (whole entry, looked up): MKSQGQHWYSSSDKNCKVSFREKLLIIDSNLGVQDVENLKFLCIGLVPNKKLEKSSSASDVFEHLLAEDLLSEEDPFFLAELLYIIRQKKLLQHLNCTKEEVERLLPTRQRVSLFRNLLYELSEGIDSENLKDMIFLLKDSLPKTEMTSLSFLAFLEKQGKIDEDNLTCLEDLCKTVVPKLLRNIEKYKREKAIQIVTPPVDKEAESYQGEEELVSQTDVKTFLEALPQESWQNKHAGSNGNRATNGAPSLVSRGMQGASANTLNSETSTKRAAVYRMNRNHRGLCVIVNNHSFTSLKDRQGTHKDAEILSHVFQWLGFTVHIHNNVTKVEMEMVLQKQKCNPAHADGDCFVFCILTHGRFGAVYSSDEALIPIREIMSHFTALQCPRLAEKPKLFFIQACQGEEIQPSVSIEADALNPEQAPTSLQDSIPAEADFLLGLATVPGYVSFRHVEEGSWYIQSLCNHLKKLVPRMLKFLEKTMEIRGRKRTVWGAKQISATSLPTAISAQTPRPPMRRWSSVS
DCPS: m7GpppX diphosphatase (DCPS, Homo sapiens, UniProt Q96C86)
Sequence of UniProt Q96C86 (whole entry, looked up): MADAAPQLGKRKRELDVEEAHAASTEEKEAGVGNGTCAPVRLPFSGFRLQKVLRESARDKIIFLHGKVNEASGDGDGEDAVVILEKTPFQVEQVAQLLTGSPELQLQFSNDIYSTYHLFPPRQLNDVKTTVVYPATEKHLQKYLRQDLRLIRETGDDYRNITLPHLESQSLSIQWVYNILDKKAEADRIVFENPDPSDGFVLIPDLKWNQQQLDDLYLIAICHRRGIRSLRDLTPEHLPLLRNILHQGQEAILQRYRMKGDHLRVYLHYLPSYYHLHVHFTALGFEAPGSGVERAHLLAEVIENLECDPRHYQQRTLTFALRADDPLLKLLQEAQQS
MAPK8: Mitogen-activated protein kinase 8 (MAPK8, Homo sapiens, UniProt P45983)
Sequence of UniProt P45983 (whole entry, looked up): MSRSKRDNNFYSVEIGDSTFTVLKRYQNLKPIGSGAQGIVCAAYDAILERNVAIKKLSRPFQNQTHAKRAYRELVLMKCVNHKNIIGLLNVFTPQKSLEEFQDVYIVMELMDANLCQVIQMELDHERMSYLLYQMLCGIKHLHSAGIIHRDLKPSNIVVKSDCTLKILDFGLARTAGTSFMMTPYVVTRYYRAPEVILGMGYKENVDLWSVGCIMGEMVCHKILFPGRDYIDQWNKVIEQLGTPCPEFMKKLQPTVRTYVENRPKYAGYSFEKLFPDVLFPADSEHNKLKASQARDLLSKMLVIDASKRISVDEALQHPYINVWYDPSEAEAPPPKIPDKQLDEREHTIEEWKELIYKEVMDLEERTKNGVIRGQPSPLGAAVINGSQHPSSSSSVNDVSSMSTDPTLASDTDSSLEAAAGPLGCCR
PTPN11: Tyrosine-protein phosphatase non-receptor type 11 (PTPN11, Homo sapiens, UniProt Q06124)
Sequence of UniProt P46089 (whole entry, looked up): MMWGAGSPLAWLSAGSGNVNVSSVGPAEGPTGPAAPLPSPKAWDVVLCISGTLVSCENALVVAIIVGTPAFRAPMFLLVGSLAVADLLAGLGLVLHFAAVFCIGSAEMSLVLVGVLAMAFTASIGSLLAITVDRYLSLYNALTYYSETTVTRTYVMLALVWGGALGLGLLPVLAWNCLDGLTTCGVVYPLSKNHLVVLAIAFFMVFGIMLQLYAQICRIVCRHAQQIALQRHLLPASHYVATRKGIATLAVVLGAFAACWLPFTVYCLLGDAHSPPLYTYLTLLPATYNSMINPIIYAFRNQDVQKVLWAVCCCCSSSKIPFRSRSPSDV
Sequence of UniProt Q92633 (whole entry, unmodified, looked up): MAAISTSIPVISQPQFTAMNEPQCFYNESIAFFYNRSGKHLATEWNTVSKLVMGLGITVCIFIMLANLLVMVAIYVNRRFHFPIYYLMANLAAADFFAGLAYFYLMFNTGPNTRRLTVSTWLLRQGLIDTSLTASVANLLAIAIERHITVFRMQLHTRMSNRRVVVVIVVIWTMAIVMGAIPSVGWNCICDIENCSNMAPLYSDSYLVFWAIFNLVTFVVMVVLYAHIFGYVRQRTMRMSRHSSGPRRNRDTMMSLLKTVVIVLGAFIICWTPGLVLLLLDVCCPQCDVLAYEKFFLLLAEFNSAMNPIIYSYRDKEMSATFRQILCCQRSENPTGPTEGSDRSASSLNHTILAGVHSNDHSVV
Sequence of UniProt Q7M759 (whole entry, looked up): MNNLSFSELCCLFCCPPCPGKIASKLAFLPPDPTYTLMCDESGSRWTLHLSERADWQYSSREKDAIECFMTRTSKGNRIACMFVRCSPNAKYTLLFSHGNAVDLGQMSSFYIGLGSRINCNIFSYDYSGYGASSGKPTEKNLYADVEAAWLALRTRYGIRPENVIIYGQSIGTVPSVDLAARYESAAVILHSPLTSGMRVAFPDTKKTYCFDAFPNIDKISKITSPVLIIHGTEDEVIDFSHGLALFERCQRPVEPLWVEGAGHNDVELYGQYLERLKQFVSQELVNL
Sequence of UniProt Q9Y4E8 (whole entry, looked up): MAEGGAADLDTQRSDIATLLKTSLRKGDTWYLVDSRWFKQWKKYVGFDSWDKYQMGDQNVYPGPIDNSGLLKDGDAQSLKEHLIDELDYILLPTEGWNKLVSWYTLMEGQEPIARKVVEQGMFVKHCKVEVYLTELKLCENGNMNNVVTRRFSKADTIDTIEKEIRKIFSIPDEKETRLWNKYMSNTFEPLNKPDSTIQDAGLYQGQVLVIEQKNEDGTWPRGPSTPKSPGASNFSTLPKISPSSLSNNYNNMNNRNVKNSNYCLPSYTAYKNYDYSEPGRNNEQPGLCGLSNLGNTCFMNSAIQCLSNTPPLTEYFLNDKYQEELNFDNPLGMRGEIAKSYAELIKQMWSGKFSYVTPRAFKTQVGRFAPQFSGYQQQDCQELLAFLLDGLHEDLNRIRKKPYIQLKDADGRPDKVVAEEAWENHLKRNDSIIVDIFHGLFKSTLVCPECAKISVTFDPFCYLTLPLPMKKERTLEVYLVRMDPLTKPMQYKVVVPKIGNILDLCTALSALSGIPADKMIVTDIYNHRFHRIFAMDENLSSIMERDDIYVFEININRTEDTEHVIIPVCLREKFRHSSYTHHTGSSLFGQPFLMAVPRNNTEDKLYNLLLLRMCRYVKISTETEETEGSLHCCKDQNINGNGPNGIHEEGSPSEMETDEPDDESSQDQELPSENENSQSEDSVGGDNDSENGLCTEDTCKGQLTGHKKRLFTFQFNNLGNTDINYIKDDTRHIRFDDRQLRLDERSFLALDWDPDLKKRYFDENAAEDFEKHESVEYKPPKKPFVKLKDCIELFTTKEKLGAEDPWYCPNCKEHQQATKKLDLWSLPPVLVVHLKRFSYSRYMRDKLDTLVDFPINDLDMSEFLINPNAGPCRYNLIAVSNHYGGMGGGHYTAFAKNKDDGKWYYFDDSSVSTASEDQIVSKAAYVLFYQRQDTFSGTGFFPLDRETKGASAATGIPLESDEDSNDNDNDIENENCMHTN
Sequence of UniProt Q13148 (whole entry, looked up): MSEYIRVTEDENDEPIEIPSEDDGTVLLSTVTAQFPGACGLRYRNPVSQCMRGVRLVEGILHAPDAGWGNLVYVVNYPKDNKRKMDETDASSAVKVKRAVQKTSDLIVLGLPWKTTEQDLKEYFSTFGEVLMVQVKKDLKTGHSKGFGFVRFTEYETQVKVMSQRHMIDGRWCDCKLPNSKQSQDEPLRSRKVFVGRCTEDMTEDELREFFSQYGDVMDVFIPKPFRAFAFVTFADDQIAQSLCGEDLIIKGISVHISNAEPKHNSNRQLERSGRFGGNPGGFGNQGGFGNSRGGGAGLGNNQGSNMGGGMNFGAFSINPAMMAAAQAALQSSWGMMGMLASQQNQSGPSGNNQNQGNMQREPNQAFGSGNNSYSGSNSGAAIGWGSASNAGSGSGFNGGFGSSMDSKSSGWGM
Sequence of UniProt P14060 (whole entry, looked up): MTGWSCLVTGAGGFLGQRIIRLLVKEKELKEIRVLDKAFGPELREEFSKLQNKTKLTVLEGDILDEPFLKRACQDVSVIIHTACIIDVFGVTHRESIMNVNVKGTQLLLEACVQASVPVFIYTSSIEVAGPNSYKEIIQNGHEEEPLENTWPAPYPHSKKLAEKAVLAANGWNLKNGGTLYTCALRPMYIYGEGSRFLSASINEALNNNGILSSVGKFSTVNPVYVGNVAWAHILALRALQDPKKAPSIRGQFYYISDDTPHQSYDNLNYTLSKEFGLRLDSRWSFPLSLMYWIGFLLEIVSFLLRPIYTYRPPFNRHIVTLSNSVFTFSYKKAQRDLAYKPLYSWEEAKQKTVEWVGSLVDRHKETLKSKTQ

O=C1c2sc(-c3ccc(N4CCC(F)C4)nc3F)nc2CCN1c1cccnc1 (stereo not drawn)
specific binding (TAR DNA-binding protein 43, aggregated (TARDBP, Homo sapiens, UniProt Q13148); radioligand binding; human, FTLD-TDP type B sarkosyl-insoluble extract; 3.53 nM): 0.275 nM and 0.172 nM

CC(C)c1ccccc1-c1coc2cc(O)ccc2c1=O
DHEA metabolism (HSD3B1 (Homo sapiens, UniProt P14060); [3H]-DHEA conversion; LNCaP; 0.1 µM, normalized to protein, unit not given; baseline: vehicle): 0

CC(=O)N[C@H](C(=O)N[C@@H](CCC(=O)O)C(=O)N[C@@H](CCCCN(C)C)C(=O)N[C@@H](CC(=O)O)C(=O)COC(=O)c1c(C)cccc1C)C(C)C
kinact/KI (CASP8; enzyme activity, inhibitor): 530000 M⁻¹ s⁻¹

Cc1cn(CC(=O)N(CC(=O)N[C@H]2COC[C@@H]2N(CC(=O)NCCOCCOCC(N)=O)C(=O)Cn2cnc3c(N)ncnc32)[C@H]2COC[C@@H]2NC(=O)CN(C(=O)Cn2cnc3c(N)ncnc32)[C@H]2COC[C@@H]2NC(=O)CN(C(=O)Cn2cnc3c(=O)[nH]c(N)nc32)[C@H]2COC[C@@H]2NC(=O)CN(C(=O)Cn2cc(C)c(=O)[nH]c2=O)[C@H]2COC[C@@H]2NC(=O)CN(C(=O)Cn2cnc3c(=O)[nH]c(N)nc32)[C@H]2COC[C@@H]2NC(=O)CN(C(=O)Cn2cc(C)c(=O)[nH]c2=O)[C@H]2COC[C@@H]2NC(=O)CN(C(=O)Cn2cnc3c(N)ncnc32)[C@H]2COC[C@@H]2NC(=O)CN(C(=O)Cn2cnc3c(=O)[nH]c(N)nc32)[C@H]2COC[C@@H]2N)c(=O)[nH]c1=O
ΔH (complementary DNA; duplex formation, UV melting curve fit; PBS; 1 µM): -75.2 ± 0.8 kcal/mol

N#Cc1cnc2sc(C(=O)O)cc2c1N1CCc2[nH]nc(C(=O)N[C@@H](CC(=O)NCCOCCN3CCOCC3)c3cccc(Br)c3)c2C1
remaining activity (IL1R1 (Homo sapiens, UniProt P14778); SEAP reporter gene, antagonist; HEK-Blue IL-36R cells; 3.7 µM, 6 h, with: IL-1β 5 ng/mL; baseline: untreated): 101%

CCCCCC(O)/C=C/C=O (stereo not drawn)
isoTOP-ABPP competition ratio (FADD; competitive isoTOP-ABPP; Ramos soluble proteome; 100 µM, with: iodoacetamide probe; baseline: DMSO over compound-treated, higher = stronger cysteine blockade): 1.7

CC(=O)N1C[C@H](O)C[C@H]1C(=O)N[C@@H](CC(C)C)C(=O)N[C@@H](C)C(=O)N[C@@H](CC(=O)O)C(=O)COC(=O)c1c(C)cccc1C
kinact/KI (CASP10; enzyme activity, inhibitor): 177000 M⁻¹ s⁻¹

C[n+]1cn([C@@H]2O[C@H](COP(=O)([O-])OP(=O)(O)CP(=O)(O)OP(=O)(O)OC[C@H]3O[C@@H](n4cnc5c(=O)[nH]c(N)nc54)[C@H](O)[C@@H]3O)[C@@H](O)[C@H]2O)c2nc(N)nc(O)c21
hydrolysis (DCPS; substrate, HPLC; concentration not given, 15 min): 0%

CCCCCCCO[C@H]1O[C@H](CO)[C@@H](O)[C@H](O)[C@@H]1O
-TΔS (Type 1 fimbrin D-mannose specific adhesin, lectin domain (fimH, Escherichia coli K-12, UniProt P08191); binding, isothermal titration calorimetry; 37 °C, global fit of two titrations): 3.99 kcal/mol

COC(=O)[C@@]1(C)C=C(C(=O)Nc2cccc(C(=O)Nc3ccc(Nc4nccc(-c5cccnc5)n4)c(C)c3)c2)C(=O)CC1
remaining activity (MAPK8; enzyme activity, inhibitor; 0.5487 µM, 6 h, unit not given, with: GSH 10 mM pre-incubation; baseline: vehicle): 0.0886

C=CC(=O)N1CC2(CCN(c3nc(OC4CCN(CCCOC)CC4)nc4c(OCC(F)(F)F)c(-c5c(C)ccc6[nH]ncc56)c(C5CC5)cc34)CC2)C1
association rate constant (GTPase KRas, GDP-bound (KRAS, Homo sapiens, UniProt P01116, G13D); binding, surface plasmon resonance): 34500 ± 3500 M⁻¹ s⁻¹

C#CCOC(=O)[C@@]1(C)C=C(C(=O)OC(C)(C)C)C(=O)CC1
fraction bound (MAPK8; D-peptide binding, inhibitor, FP peptide displacement; 3.125 µM; lower is stronger displacement): 0.925

O=C(N1CCCC1)n1cc(-c2ccc(-c3ccccc3)cc2)nn1
SILAC ratio (Alpha/beta hydrolase domain-containing protein 17B (Abhd17b, Mus musculus, UniProt Q7M759); probe labelling, inhibitor, competitive ABPP-SILAC, measured: Fam108b1; mouse T cells; concentration not given, 4 h, in situ, single peptide; baseline: treated over DMSO, lower = more inhibition): 1.18 and 1.31 and 1.13

CC[C@H](C)[C@H](NC(=O)[C@@H](NC(=O)[C@@H](NC(=O)[C@@H](NC(=O)[C@@H](N)CCCCN)C(C)C)C(C)C)C(C)C)C(=O)N[C@H](C(N)=O)[C@@H](C)O
ThT fluorescence (MAPT (Homo sapiens, UniProt P10636); fibril formation, ThT fluorescence; 1-fold of tau, at plateau, with: wild-type tau 10 µM, heparin; baseline: untreated): 102 ± 5%

C[Si]1(C[C@H](CN)CC(=O)O)CCCC1
inhibition (SLC29A1 (Homo sapiens, UniProt Q99808); binding, radioligand binding; 70 µM, with: [3H]nitrobenzylthioinosine): -10%

CC[C@H](C)[C@H](NC(=O)[C@@H](NC(=O)[C@H](CCCCN)NC(=O)[C@@H](N)[C@@H](C)O)C(C)C)C(=O)N[C@@H](CC(C)C)C(=O)N[C@@H](Cc1c[nH]cn1)C(N)=O
ThT fluorescence (Microtubule-associated protein tau, PHF6* peptide (MAPT, Homo sapiens, UniProt P10636); fibril formation, ThT fluorescence; 1-fold of peptide, pH 7.4, with: Ac-PHF6* 25 µM, heparin; baseline: untreated): 155 ± 2%

CC(C=CC=C(C)C=CC1=C(C)CCCC1(C)C)=CC=O
plasma membrane localization (Rhodopsin (RHO, Homo sapiens, UniProt P08100, E181K); immunostaining, measured: opsin; COS-7 transfected; 0.10 µM, unit not given; baseline: surface over total stained cells): 0

Cc1cc(=O)oc2c(F)c(OP(=O)(O)O)c(F)cc12
kcat (PTPN11; dephosphorylation, substrate): 157 ± 4 s⁻¹

CCCCCCCCCCCCC/C=C/C=O
isoTOP-ABPP competition ratio (FADD; competitive isoTOP-ABPP; Ramos soluble proteome; 100 µM, with: iodoacetamide probe; baseline: DMSO over compound-treated, higher = stronger cysteine blockade): 1

CC(=O)N[C@@H](CC(C)C)C(=O)N[C@H](C(=O)N[C@@H](C)C(=O)N[C@@H](CC(=O)O)C(=O)COC(=O)c1c(C)cccc1C)C(C)(C)C
kinact/KI (CASP10; enzyme activity, inhibitor): 350000 M⁻¹ s⁻¹

CCN(CC)C(CO)c1cccc2c(C)c(C)oc12 (stereo not drawn)
fold change (LPAR1 (Homo sapiens, UniProt Q92633, W271F); G-protein dissociation, agonist, NanoBiT; HEK-293T; 100 pM, W271F mutant; baseline: baseline luminescence): 0.972 and 0.988 and 0.997 and 0.986 and 0.896

CCCC[C@H](NC(C)=O)C(=O)N[C@@H](CCC(=O)O)C(=O)N[C@@H](CO)C(=O)N[C@@H](CC(=O)O)C(=O)COC(=O)c1c(C)cccc1C
kinact/KI (CASP10; enzyme activity, inhibitor): 381000 M⁻¹ s⁻¹

C1=[N+]2CCC[N+]3=Cc4ccc5[n]4[Au-]23[n]2c1ccc2-c1nc2ccccc2nc1-5.F[P-](F)(F)(F)(F)F
linear DNA (DNA topoisomerase 1 (TOP1, Homo sapiens, UniProt P11387); 0.5 to 30 µM, with: 50 units TOP1): < 1%

C[n+]1cn(C2OC(COP(=O)(O)OP(=O)([O-])C(Cl)(Cl)P(=O)(O)O)C(O)C2O)c2nc(N)nc(O)c21 (stereo not drawn)
hydrolysis (DCPS; substrate, HPLC; concentration not given, 15 min): 0.2 ± 0.2%

CNC(=O)C[C@H](Cc1ccc(C#N)cc1)NC(=O)c1cc(-c2ccc(CN[C@H](C)c3ccc(C)cc3)o2)ccc1Cl
activity vs control (MOK (Homo sapiens, UniProt Q9UQ07); enzyme activity, inhibitor; 1 µM): 106%

CC(C)Oc1cc(Cl)ccc1CNc1cc(-c2ccccc2)nc2ncnn12
cAMP luminescence (GPR3 (Homo sapiens, UniProt P46089); cAMP reporter; human cells; 3 µM; higher is more cAMP): 2280 a.u. and 13000 a.u. and 3540 a.u. and 4850 a.u. and 2010 a.u. and 3340 a.u.

Nc1c(NCc2ccccc2)c2ccccc2oc1=O
agonist activity (ADRA1A (Homo sapiens, UniProt P35348); intracellular Ca2+ mobilization, agonist; COS-7; 500 µM; baseline: 3 µM ionomycin): 6.24 ± 2.13%

CCOC(=O)C(CC)(CCCSCCOCCOCCN)NC(=O)c1ccc(C2CC2)c(Cc2ccc(F)cc2)n1 (racemic)
Emax (CNR1 (Homo sapiens, UniProt P21554); cAMP, agonist): 96%

CC(=O)N[C@@H](CC(=O)O)C(=O)N[C@@H](C)C(=O)N[C@@H](Cc1ccc(N)cc1)C(=O)N[C@@H](CC(=O)O)C(=O)COC(=O)c1c(C)cccc1C
kinact/KI (CASP8; enzyme activity, inhibitor): 57000 M⁻¹ s⁻¹

N#CN1CC[C@H](C(=O)Nc2nc3c(s2)CN(C(=O)Cn2cc(CNC(=O)CCCC[C@@H]4SC[C@@H]5NC(=O)N[C@@H]54)nn2)CC3)C1
iBAQ abundance (USP15 (Homo sapiens, UniProt Q9Y4E8); probe binding, affinity probe, neutravidin pull-down LC-MS/MS; HEK293T, cell lysate; 5 µM, 1 h, single replicate, unit not given; higher = more pulled down): 5.9e+06 and 1.53e+06 and 3.51e+06

CCCC[C@H](NC(=O)[C@H](CC(=O)O)NC(C)=O)C(=O)N[C@H](C(=O)N[C@@H](CC(=O)O)C(=O)COC(=O)c1c(C)cccc1C)[C@@H](C)OCc1ccccc1
kinact/KI (CASP10; enzyme activity, inhibitor): 235000 M⁻¹ s⁻¹

CC[C@H](C)[C@@H]1NC(=O)[C@H](Cc2ccccc2)NC(=O)[C@H](CCC(=O)O)NC(=O)[C@H](CCCNC(=N)N)NC(=O)CNC(=O)[C@@H](NC(=O)[C@H](CC(C)C)NC(=O)[C@H](CCCNC(=N)N)NC(=O)[C@@H](NC(=O)CNC(=O)[C@H](Cc2ccc(O)cc2)NC(=O)[C@@H]2CCCN2C(=O)[C@H](C)NC(=O)[C@H](C)NC(=O)[C@@H](N)CCCNC(=N)N)C(C)C)CSSC[C@@H]2NC(=O)[C@@H](NC(=O)[C@H](CO)NC(=O)[C@H](CO)NC(=O)[C@H](CO)NC(=O)[C@H](CC(C)C)NC(=O)CNC(=O)[C@H](C)NC(=O)[C@H](CC(C)C)NC(=O)[C@@H](NC(=O)[C@@H](N)CC(=O)O)C(C)C)CSSC[C@H](NC(=O)CNC(=O)[C@H](Cc3c[nH]c4ccccc34)NC(=O)[C@H](CCCCN)NC2=O)C(=O)N[C@@H](CO)C(=O)N[C@@H](CCCCN)C(=O)N[C@@H](CO)C(=O)N[C@@H](CCC(=O)O)C(=O)N[C@@H]([C@@H](C)CC)C(=O)N[C@@H](CO)C(=O)N[C@@H](CO)C(=O)N[C@@H](CC(C)C)C(=O)N[C@H](C(=O)O)CSSC[C@@H](C(=O)NCC(=O)NCC(=O)N[C@@H](CO)C(=O)N[C@@H](CCCNC(=N)N)C(=O)N[C@@H](Cc2c[nH]c3ccccc23)C(=O)O)NC(=O)[C@H]([C@@H](C)O)NC(=O)[C@H](Cc2ccccc2)NC(=O)[C@H]([C@@H](C)CC)NC(=O)[C@H](C(C)C)NC(=O)[C@H](C)NC(=O)[C@H](CCCNC(=N)N)NC1=O
Emax (RXFP3 (Homo sapiens, UniProt Q9NSD7, H379A); HEK-293T; baseline: wild type): 62.4 ± 3.21%

CC(=O)N[C@H](C(=O)N[C@@H](CCCCN)C(=O)N[C@@H](CCC(N)=O)C(=O)N[C@@H](CC(=O)O)C(=O)COC(=O)c1c(C)cccc1C)C(C)C
kinact/KI (CASP8; enzyme activity, inhibitor): 162000 M⁻¹ s⁻¹

C=C1C(=O)C2(C(=O)N3CCN(c4ccc(Br)cc4)CC3)CC(=O)CC1C2 (racemic)
kinact/KI (PTPN11; enzyme activity, covalent inhibitor; with: pNPP substrate): 367 M⁻¹ s⁻¹

CCCC[C@H](NC(C)=O)C(=O)N[C@@H](CCC(=O)O)C(=O)N[C@H](C(=O)N[C@@H](CC(=O)O)C(=O)COC(=O)c1c(C)cccc1C)[C@@H](C)O
kinact/KI (CASP10; enzyme activity, inhibitor): 164000 M⁻¹ s⁻¹

C[N+]1(C)CCCC1
kon (Chrnd/Chrna1/Chrne (Mus musculus, UniProt P02716+P04756+P20782, G173K/S470W); single-channel kinetics; K chain side site): 1.47e+07 M⁻¹ s⁻¹

Excerpt of the above:
C[N+]1(C)CCCC1
kon (Chrnd/Chrna1/Chrne (Mus musculus, UniProt P02716+P04756+P20782, G173K/S470W); single-channel kinetics; K chain side site): 1.47e+07 M⁻¹ s⁻¹

O=C(N1CCCC1)n1cc(-c2ccc(-c3ccccc3)cc2)nn1
SILAC ratio (Alpha/beta hydrolase domain-containing protein 17B (Abhd17b, Mus musculus, UniProt Q7M759); probe labelling, inhibitor, competitive ABPP-SILAC, measured: Fam108b1; mouse T cells; concentration not given, 4 h, in situ, single peptide; baseline: treated over DMSO, lower = more inhibition): 1.18 and 1.31 and 1.13

CCCCCC(O)/C=C/C=O (stereo not drawn)
isoTOP-ABPP competition ratio (FADD; competitive isoTOP-ABPP; Ramos soluble proteome; 100 µM, with: iodoacetamide probe; baseline: DMSO over compound-treated, higher = stronger cysteine blockade): 1.7
